# Measurements collected from several papers.
# “And” joins repeats or separate records; there may be more than shown. ± gives the spread as reported.
SMILES,cell line,assay,test system,conditions,scale,quantity,result
CNC(=O)CC1CN(C(=O)c2ccc(C(F)(F)F)cn2)CCN1C(=O)c1cccnn1 (stereo not drawn),Huh-7-ACE2,CellTiter-Glo,,"0.000763 µM, 48 h, unit not given",reference: DMSO,viability,0.904 and 0.873 and 1.01
C/C=C(/C)C(=O)OC[C@H]1[C@@H](Cc2ccc(C(C)(C)C)cc2)CO[C@@H]1c1ccc(OC)c(OC)c1,rat aortic VSMCs,,,"30 µM, 24.5 h",,LDH release,16.3 ± 7.4%
CNC(=O)C[C@H](Cc1ccc(F)cc1)NC(=O)[C@@H](Cc1ccc(Cl)cc1Cl)NC(=O)[C@H](N)Cc1ccccc1C#N,Huh-7-ACE2,CellTiter-Glo,,"0.781 µM, 48 h, unit not given",reference: DMSO,viability,0.964 and 0.996 and 1.06
CCO[C@H]1[C@H](O)[C@@H](N)[C@@H](O[C@H]2[C@H](O[C@@H]3O[C@H](CO)[C@@H](O[C@H]4O[C@@H](CN)[C@@H](O)[C@H](O)[C@H]4N)[C@H]3O)[C@@H](O)[C@H](N)C[C@@H]2N)O[C@@H]1CO,NIH 3T3,,,"72 h, 10% fetal bovine serum",,25% lethal concentration,> 1200 µM
N=C(N)NCCC[C@H](NC(=O)[C@H](CCCNC(=N)N)NC(=O)[C@H](CCCNC(=N)N)NC(=O)[C@H](CCC(N)=O)NC(=O)[C@H](CCCNC(=N)N)NC(=O)[C@H](CCCNC(=N)N)NC(=O)[C@H](CCCCN)NC(=O)[C@H](CCCCN)NC(=O)[C@H](CCCNC(=N)N)NC(=O)CNC(=O)[C@H](Cc1ccc(O)cc1)NC(=O)[C@H](Cc1ccccc1)NC(=O)[C@H](Cc1ccccc1)NC(=O)[C@H](Cc1ccccc1)NC(=O)OCC1c2ccccc2-c2ccccc21)C(=O)O,human red blood cells,hemolysis,,,minimum concentration causing 10% hemolysis,HC10,> 64 µM
CC(C)C[C@H](NC(=O)[C@H](CC(C)C)NC(=O)[C@H](CCCCN)NC(=O)CNC(=O)[C@H](CC(C)C)NC(=O)CNC(=O)[C@H](CO)NC(=O)[C@H](CC(C)C)NC(=O)[C@H](CC(C)C)NC(=O)[C@H](CO)NC(=O)[C@H](CCCCN)NC(=O)[C@H](CC(C)C)NC(=O)[C@H](CCCCN)NC(=O)[C@H](CCCCN)NC(=O)[C@H](CC(C)C)NC(=O)[C@H](CC(C)C)NC(=O)[C@H](CC(C)C)NC(=O)CNC(=O)[C@H](CO)NC(=O)[C@H](Cc1c[nH]c2ccccc12)NC(=O)[C@@H](N)CCCCN)C(=O)O,human red blood cells,hemolysis,,1 h,,HC50,12.5 to 25 µM
CCOc1ccc(CN2CC[C@H]2C(=O)NC)cc1-c1cccc(C(=O)NC[C@@H]2COC(C)(C)O2)c1,Huh-7-ACE2,CellTiter-Glo,,"3.125 µM, 48 h, unit not given",reference: DMSO,viability,0.846 and 0.862 and 0.918
N=C(N)NCCC[C@H](NC(=O)[C@H](CCCNC(=N)N)NC(=O)[C@H](CCCNC(=N)N)NC(=O)[C@H](CCC(N)=O)NC(=O)[C@H](CCCNC(=N)N)NC(=O)[C@H](CCCNC(=N)N)NC(=O)[C@H](CCCCN)NC(=O)[C@H](CCCCN)NC(=O)[C@H](CCCNC(=N)N)NC(=O)CNC(=O)[C@H](Cc1ccc(O)cc1)NC(=O)[C@H](Cc1ccccc1)NC(=O)[C@H](Cc1ccccc1)NC(=O)[C@H](Cc1ccccc1)NC(=O)Cc1ccc2ccccc2c1)C(=O)O,RAW264.7,FITC-labelled peptide,,"concentration not given, with: chlorpromazine 6 µg/mL, 1 h pretreatment",reference: no chlorpromazine,cell internalization,decreased
NCCCC[C@@H](CC(N)=O)NC(=O)[C@H]1CCCC[C@@H]1NC(=O)[C@H]1CCCC[C@@H]1NC(=O)C[C@H](CCCCN)NC(=O)[C@H]1CCCC[C@@H]1NC(=O)[C@H]1CCCC[C@@H]1NC(=O)C[C@H](CCCCN)NC(=O)[C@H]1CCCC[C@@H]1NC(=O)[C@H]1CCCC[C@@H]1N,human red blood cells,,,"antifungal MIC, 1 h, pH 7.5",reference: melittin,hemolysis,0.29 ± 1.73%
c1ccc(Nc2ncnc3ccc(-c4cccc(N5CCOCC5)c4)cc23)cc1,NIH 3T3,PrestoBlue,,96 h,,TC50,8.4 µM
CC(=O)NCC(=O)N[C@@H](CCCNC(=N)N)C(=O)N[C@@H](CCCCN)C(=O)N[C@@H](CCCCN)C(=O)N[C@@H](CCCNC(=N)N)C(=O)N[C@@H](CCCNC(=N)N)C(=O)N[C@@H](CCC(N)=O)C(=O)N[C@@H](CCCNC(=N)N)C(=O)N[C@@H](CCCNC(=N)N)C(=O)N[C@@H](CCCNC(=N)N)C(=O)N1CCC[C@H]1C(=O)N[C@@H](CCC(N)=O)C(N)=O,HEK293T cells,LC-MS,cytoplasmic fraction,"20 µM, 24 h",,peptide concentration,228 pmol/mg protein and 224 pmol/mg protein and 234 pmol/mg protein
NC(=O)N/N=C/c1ccc(OCc2ccccc2)cc1,IMR-32,MTT,,"100 µg/mL, 24 h",reference: untreated control,viability,62.3%
C[C@@H]1O[C@@H](O[C@@H]2[C@@H](O)[C@H](O)[C@@H](CO)O[C@H]2c2c(O)cc(O)c3c(=O)cc(-c4ccc(O)cc4)oc23)[C@H](O)[C@H](O)[C@H]1O,Caco-2,CCK-8,,"0.625 µM, 24 h",,viability,105%
C#Cc1ccc(C[C@@H]2NC(=O)CSCCNC(=O)[C@H](Cc3ccccc3)N(C)C(=O)[C@H](CC(C)C)NC(=O)[C@H](Cc3cccc4ccccc34)NC(=O)[C@H](CC(C)C)NC(=O)C(C)(C)NC(=O)[C@@H]3CCCN3C(=O)[C@H](C(C)C)NC2=O)cc1,LLC-PK1,,Caco-2,,,Papp A→B,0.07 ×10⁻⁶ cm/s
S=c1n(-c2ccccc2)c2c3ccccc3nc3[n+]2[n]1[Ir-3]12([S]3)([c]3cccc4ccc5ccc[n+]1c5c34)[c]1cccc3ccc4ccc[n+]2c4c13,A549,ICP-MS,,"10 µM, 24 h, 37 °C",,cellular iridium uptake,5.57 ± 0.95 fmol/cell
Fc1cccc(COc2ccc(Nc3ncnc4ccc(-c5cccc(CN6CCCCC6)c5)cc34)cc2Cl)c1,NIH 3T3,PrestoBlue,,96 h,,TC50,4.4 µM
O=C(O)c1cccc(CP(=O)(O)O)n1,Caco-2,"lysosome integrity, neutral red uptake",,"24 h, without 10% FBS",,EC50,> 250 µg/mL
C#Cc1ccc(C[C@@H]2NC(=O)CSCCNC(=O)[C@H](Cc3ccccc3)N(C)C(=O)[C@H](CC(C)C)NC(=O)[C@H](CCC3CCCCC3)NC(=O)[C@H](CC(C)C)NC(=O)[C@H](C(C)C)NC(=O)[C@]3(C)CCCN3C(=O)[C@H](C(C)C)NC2=O)cc1,LLC-PK1,,Caco-2,,,Papp A→B,0.02 ×10⁻⁶ cm/s
Cc1cc(-c2ccc3ccccc3c2)nnc1NCCN1CCN(C)CC1,Caco-2,,,"5 µM, 0.5 h",,Papp A-B,18.9 ×10⁻⁶ cm/s
Cc1ccc2[nH]c3c(c2c1)CCCC3NCc1ccccc1 (stereo not drawn),A549,,,"50 µM, 23 h",,non-viable cells,4.4 ± 6.3%
CN(C)CCCNC(=O)[C@@H]1NC(=O)[C@@H]2Cc3ccc(cc3)Oc3cc4cc(c3O)-c3ccc5c(c[nH]c5c3)C[C@@H](NC(=O)C(NC(=O)CCCCCN)c3ccc(O)cc3)C(=O)N[C@H](c3ccc(O)cc3)C(=O)N[C@H]4C(=O)N[C@@H](C(=O)N2C)c2ccc(cc2)Oc2cc1ccc2O (stereo partly drawn),human red blood cells,,PBS,"16 µg/mL, 1 h, pH 7.4, 37 °C",,hemolysis,1.9% and 0.95%
O=C(c1ccc(-c2ccc3ncnc(Nc4ccc(OCc5cccc(F)c5)c(Cl)c4)c3c2)cc1)N1CCOCC1,NIH 3T3,PrestoBlue,,96 h,,TC50,0.81 µM
CNC(=O)C[C@H](Cc1ccncc1)NC(=O)[C@@H](Cc1cccc(Br)c1)NC(=O)[C@@H](N)Cc1cccc(F)c1,Huh-7-ACE2,CellTiter-Glo,,"0.781 µM, 48 h, unit not given",reference: DMSO,viability,0.982 and 1.06 and 1.03
CC(C)C[C@@H]1NC(=O)C(C)(C)NC(=O)[C@@H]2CCCN2C(=O)[C@H](C(C)C)NC(=O)[C@H](Cc2ccccc2)NC(=O)CSCCNC(=O)[C@H](Cc2ccccc2)N(C)C(=O)[C@H](CC(C)C)NC(=O)[C@H](Cc2cccc3ccccc23)NC1=O,LLC-PK1,,Caco-2,,,Papp A→B,0.01 ×10⁻⁶ cm/s
COc1ccccc1CCNC1CCCc2c1[nH]c1ccc(C)cc21 (stereo not drawn),A549,,,"50 µM, 23 h",,non-viable cells,70.3 ± 6%
CNC(=O)C[C@H](Cc1ccccc1)NC(=O)[C@@H](Cc1ccc(Cl)cc1Cl)NC(=O)[C@H](N)Cc1ccccc1C#N,Huh-7-ACE2,CellTiter-Glo,,"0.195 µM, 48 h, unit not given",reference: DMSO,viability,1 and 1.06 and 1.07
CC(C)C[C@@H]1NC(=O)[C@H](Cc2ccccc2)N(C)C(=O)[C@H]2CCCN2C(=O)CNC(=O)[C@H](CC(C)C)N(C)C(=O)[C@H](CC(C)C)NC(=O)[C@H](Cc2ccccc2)N(C)C(=O)[C@H]2CCCN2C(=O)[C@H](CC(C)C)NC(=O)[C@H](C)N(C)C1=O,LLC-PK1,,Caco-2,,,Papp A→B,3.92 ×10⁻⁶ cm/s

# Excerpt of the above:
SMILES,cell line,assay,test system,conditions,scale,quantity,result
CNC(=O)C[C@H](Cc1ccc(F)cc1)NC(=O)[C@@H](Cc1ccc(Cl)cc1Cl)NC(=O)[C@H](N)Cc1ccccc1C#N,Huh-7-ACE2,CellTiter-Glo,,"0.781 µM, 48 h, unit not given",reference: DMSO,viability,0.964 and 0.996 and 1.06
CN(C)CCCNC(=O)[C@@H]1NC(=O)[C@@H]2Cc3ccc(cc3)Oc3cc4cc(c3O)-c3ccc5c(c[nH]c5c3)C[C@@H](NC(=O)C(NC(=O)CCCCCN)c3ccc(O)cc3)C(=O)N[C@H](c3ccc(O)cc3)C(=O)N[C@H]4C(=O)N[C@@H](C(=O)N2C)c2ccc(cc2)Oc2cc1ccc2O (stereo partly drawn),human red blood cells,,PBS,"16 µg/mL, 1 h, pH 7.4, 37 °C",,hemolysis,1.9% and 0.95%
CNC(=O)C[C@H](Cc1ccccc1)NC(=O)[C@@H](Cc1ccc(Cl)cc1Cl)NC(=O)[C@H](N)Cc1ccccc1C#N,Huh-7-ACE2,CellTiter-Glo,,"0.195 µM, 48 h, unit not given",reference: DMSO,viability,1 and 1.06 and 1.07
CC(=O)NCC(=O)N[C@@H](CCCNC(=N)N)C(=O)N[C@@H](CCCCN)C(=O)N[C@@H](CCCCN)C(=O)N[C@@H](CCCNC(=N)N)C(=O)N[C@@H](CCCNC(=N)N)C(=O)N[C@@H](CCC(N)=O)C(=O)N[C@@H](CCCNC(=N)N)C(=O)N[C@@H](CCCNC(=N)N)C(=O)N[C@@H](CCCNC(=N)N)C(=O)N1CCC[C@H]1C(=O)N[C@@H](CCC(N)=O)C(N)=O,HEK293T cells,LC-MS,cytoplasmic fraction,"20 µM, 24 h",,peptide concentration,228 pmol/mg protein and 224 pmol/mg protein and 234 pmol/mg protein
CC(C)C[C@@H]1NC(=O)[C@H](Cc2ccccc2)N(C)C(=O)[C@H]2CCCN2C(=O)CNC(=O)[C@H](CC(C)C)N(C)C(=O)[C@H](CC(C)C)NC(=O)[C@H](Cc2ccccc2)N(C)C(=O)[C@H]2CCCN2C(=O)[C@H](CC(C)C)NC(=O)[C@H](C)N(C)C1=O,LLC-PK1,,Caco-2,,,Papp A→B,3.92 ×10⁻⁶ cm/s
